# Measured values collected from several papers.
# Numbered parts are unrelated; each lists some results of a single study. Changes are numbered by the printed parent chain.
# Chain of UniProt Q8IWQ3 (whole entry, looked up): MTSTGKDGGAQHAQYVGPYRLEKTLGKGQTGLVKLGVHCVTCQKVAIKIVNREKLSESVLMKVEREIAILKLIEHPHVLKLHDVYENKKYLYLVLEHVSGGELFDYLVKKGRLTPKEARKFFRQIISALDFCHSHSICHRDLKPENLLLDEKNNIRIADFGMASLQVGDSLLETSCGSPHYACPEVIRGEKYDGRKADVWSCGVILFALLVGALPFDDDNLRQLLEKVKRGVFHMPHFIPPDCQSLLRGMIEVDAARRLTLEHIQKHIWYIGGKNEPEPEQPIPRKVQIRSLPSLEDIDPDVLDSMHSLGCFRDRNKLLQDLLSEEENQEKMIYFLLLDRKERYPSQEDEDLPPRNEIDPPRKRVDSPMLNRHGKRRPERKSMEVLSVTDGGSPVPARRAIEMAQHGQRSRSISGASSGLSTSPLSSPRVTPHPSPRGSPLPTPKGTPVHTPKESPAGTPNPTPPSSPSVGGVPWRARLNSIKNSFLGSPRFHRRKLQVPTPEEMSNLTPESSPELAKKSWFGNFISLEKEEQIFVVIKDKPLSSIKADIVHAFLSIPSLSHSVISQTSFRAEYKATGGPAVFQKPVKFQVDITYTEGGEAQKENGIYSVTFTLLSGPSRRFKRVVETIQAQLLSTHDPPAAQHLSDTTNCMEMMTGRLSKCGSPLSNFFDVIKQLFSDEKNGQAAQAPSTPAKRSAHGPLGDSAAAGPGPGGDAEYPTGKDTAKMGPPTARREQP

# Block 1
# Substitution: T39N
# Target: ABI1, truncated, D143A, DHFR fusion (Arabidopsis thaliana)
# Method: DHFR PCA, deep sequencing
# Sample: yeast
# Setting: methotrexate growth selection, single substitutions
# Reference: wild-type fitted maximum
# Reading: higher = stronger binding
# Starting sequence: PYL1, truncated, DHFR fusion (Arabidopsis thaliana); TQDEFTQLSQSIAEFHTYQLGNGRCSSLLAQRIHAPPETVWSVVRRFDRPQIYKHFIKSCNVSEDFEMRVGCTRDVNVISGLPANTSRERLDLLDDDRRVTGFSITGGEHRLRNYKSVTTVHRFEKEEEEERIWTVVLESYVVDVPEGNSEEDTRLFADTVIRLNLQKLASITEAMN; partner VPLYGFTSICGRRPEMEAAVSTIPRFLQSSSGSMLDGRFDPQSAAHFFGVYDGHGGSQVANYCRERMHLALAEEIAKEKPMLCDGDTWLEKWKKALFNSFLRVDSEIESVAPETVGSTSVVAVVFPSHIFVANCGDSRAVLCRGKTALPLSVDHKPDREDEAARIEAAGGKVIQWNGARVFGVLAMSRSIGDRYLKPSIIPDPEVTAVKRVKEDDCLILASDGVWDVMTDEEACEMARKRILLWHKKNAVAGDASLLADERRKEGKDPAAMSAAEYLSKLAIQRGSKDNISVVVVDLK
conditions,relative binding score
with: (+)-ABA 4.8 µM,47.5%
with: (+)-ABA 2500 µM,97.5%
with: (+)-ABA 0 µM,1.03%
with: (+)-ABA 0.11 µM,5.57%
with: (+)-ABA 58 µM,76.6%
with: (+)-ABA 0.032 µM,0.64%

# Block 2
# Target: RNA binding protein fox-1 homolog 2, RRM domain, GST-SBP tag (RBFOX2, Homo sapiens, UniProt O43251-10, residues 100-194)
# Method: RNA Bind-n-Seq
# Molecule type: RNA
# Sample: in vitro
# Tested at: 365 nM
# Setting: natural RNA segment, single round, ends assumed
# Reference: no-protein control
# Reading: higher = stronger binding
# Shared flanks, not repeated: GGGAGUUCUACAGUCCGACGAUC … UGGAAUUCUCGGGUGCCAA
# Residues (chain): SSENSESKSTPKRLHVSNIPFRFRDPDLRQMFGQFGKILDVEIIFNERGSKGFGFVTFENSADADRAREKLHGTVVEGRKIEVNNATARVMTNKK
Strand,RBNS enrichment (R)
AAAGAAAAAGCUGAAGAAAUCAAGAACCAAUUGAAAUUCCUUUGGACACUUUUUUUUUUUUGUCUGUCGUUAAUUUUUAAAGACAUGUAAAGGAAGGUAACGAUUGCUGG,0.625
CUGAGAAUCAUGACAGACCCUCUGCCAGUCUCUAGUUUCUCUGGGUCAGGUUUCUGAGUACUGGCAUUGGAUUUUAAGCGGCAUGUGACCCUUUGUGUUUUAGUGACUCA,1.98
GGAAAUUGUAACAGUUAAUUACUUUGAAUGUUGCUAAAAGGACAUUUUGUGUAGGGUCAAGUUAUUUUUAUAUGAGUUAAUGUGAAAUUGUAAAUGGAAAUUUUUCCUUA,1.62
UCUCAUGCCAGCAUGCUUUCAUUUGUCAGUUGUUGUGACUGAGAGAUAAUGAAUGACACCUGAAAUGCAUAUGGUAUUUUUGGGAGAGUUAAGGUAUAAUUUGAAGGUUG,1.6
UUGGGGAAGGGGACAGAUUAUGAAAUUUCAUGGAUGAAUUUUCCAGACCUAUAUCUGGAGUGAGAGGCCCCCACCCUUGGGCAGAGUCCUGCCUUCUUCCUUGAGGGGCA,0.502
GUAGCUGGAUCACCCAAGUAGUAGCCCUUGAUCUCCUUUCAUGACGGAUAGGCUCAGUUAGUCAGGAAUGUUUACACCUCAGUUAACUUCAGUGAUUGACUUAAAGACUG,0.311
UUCCAUCUUUGUAUACACCUGCAUGCAGGAAGACCUGGAUAUGGAUGAGCCCUGAGGAACACAGGGAGGGCCUUGAAGAACAAUCUACAGAUGCACAAUCCUUUCCAACC,4.77
ACAUGGAAACAAAUAUUUGGGAGCCUGCAUAGUCUUUAGAUGGCUGCCAAAGCACUUAAAAUCUCCUUUAAAUUCUUACCAUAUGCUUACUUUUGUACUAAGUAAGUGCU,0.641

# Block 3
# Target: CRIPT, C-terminal peptide
# Method: DHFR complementation, deep sequencing
# Sample: yeast
# Setting: single substitutions, model-inferred values
# Reference: wild type
# Reading: higher = weaker binding
# Starting sequence: ERBIN, PDZ domain 1 (human); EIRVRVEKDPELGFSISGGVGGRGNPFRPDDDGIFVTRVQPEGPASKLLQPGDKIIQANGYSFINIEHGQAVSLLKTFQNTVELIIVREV; partner TKNYKQTSV
Substitution,binding free energy change [kcal/mol]
F63W,1.18
S17M,0.633
G33W,0.984
R23V,-0.0184
G52M,0.67
K54I,0.785
A71I,1.28
F14Q,0.565

# Other studies, line by line
SMILES,target,test,conditions,quantity,value
CCCOc1ccc([C@@H]2[C@@H](C(=O)O)[C@H](c3ccc4c(c3)OCO4)CN2CC(=O)Nc2c(CC)cccc2CC)cc1,"Serine/threonine-protein kinase BRSK2 (BRSK2, Homo sapiens, UniProt Q8IWQ3)","cell-free assay, competition with immobilised ligand",1 µM,remaining binding,100%

# Some of these lines once more (block 2):
Strand,RBNS enrichment (R)
AAAGAAAAAGCUGAAGAAAUCAAGAACCAAUUGAAAUUCCUUUGGACACUUUUUUUUUUUUGUCUGUCGUUAAUUUUUAAAGACAUGUAAAGGAAGGUAACGAUUGCUGG,0.625
CUGAGAAUCAUGACAGACCCUCUGCCAGUCUCUAGUUUCUCUGGGUCAGGUUUCUGAGUACUGGCAUUGGAUUUUAAGCGGCAUGUGACCCUUUGUGUUUUAGUGACUCA,1.98
GGAAAUUGUAACAGUUAAUUACUUUGAAUGUUGCUAAAAGGACAUUUUGUGUAGGGUCAAGUUAUUUUUAUAUGAGUUAAUGUGAAAUUGUAAAUGGAAAUUUUUCCUUA,1.62
